Published values of several laboratories.
Compare with care: the assays were run in different laboratories. “And” joins repeats or separate records; there may be more than shown. ± gives the spread as reported.

Compound | organism | assay | test system | conditions | how to read | measurement | result
CC(C)CC(c1c[nH]c2ccccc12)c1c[nH]c2ccccc12 | Clostridioides difficile | microbial growth, absorbance | – | – | – | IC50 | > 50 µM
C=C(NC(=O)c1csc(-c2nc3c(cc2O)-c2nc(cs2)C(=O)NC(C(C)O)C(=O)NC(=C(C)OC)c2nc(cs2)C(=O)NC2c4nc(cs4)C(=O)NC(COC(=O)c4c5c6c(cccc6n4O)COC(=O)C(OC4CC(C)(O)C(N(C)C)C(C)O4)C2OC5)c2nc-3cs2)n1)C(N)=O (stereo not drawn) | Staphylococcus aureus | – | ATCC 43300 MRSA | 1 x MIC, 2 h exposure | – | post-antibiotic effect | 0.82 ± 0.11 h
Cc1[nH]c2ccccc2c1CC(=O)N[C@@H](Cc1ccccc1)C(=O)N(C)c1ccccc1 | human immunodeficiency virus 1 | viral replication | NL4-3 with subtype AE gag/pol | – | – | EC50 | 0.5 ± 0.1 µM
CCC1(CC)CC(=O)N(C2c3cc(C(=O)NC4c5ccccc5CC4O)ccc3OC2(C)COC)C(=N)N1 (stereo not drawn) | Plasmodium vivax | invasion of reticulocytes | field isolates | ex vivo | – | EC50 | < 0.001 µM
c1ccc(CN2CCOCCOCCN(CCCCCCCCCCCCN3CCOCCOCCN(CCCCCCCCCCCCN4CCOCCOCCN(Cc5ccccc5)CCOCCOCC4)CCOCCOCC3)CCOCCOCC2)cc1 | Klebsiella pneumoniae | checkerboard | ATCC BAA-2146 | half MIC, together with: tetracycline | – | FIC index | 0.63
C=C[C@]1(C)C[C@@H](OC(=O)CSc2ccc(NC(=O)c3ccco3)cc2)[C@]2(C)[C@H](C)CC[C@]3(CCC(=O)[C@H]32)[C@@H](C)[C@@H]1O | Mycoplasma gallisepticum | – | infected chickens, lung | intramuscular, 60 mg/kg daily x3, 72 h | – | lung mycoplasma count | 2.1 log10 CFU/mL and 3.13 log10 CFU/mL and 3.21 log10 CFU/mL and 4.57 log10 CFU/mL and 3.9 log10 CFU/mL and 3.65 log10 CFU/mL and 4.38 log10 CFU/mL and 3.92 log10 CFU/mL
CC1(C)C(NC(=O)C(=NOC2(C(=O)O)CCC2)c2csc(N)n2)C(=O)N1OS(=O)(=O)O (stereo not drawn) | Providencia rettgeri | agar dilution | ATCC 31052, susceptible | – | – | MIC | ≤ 0.03 µg/mL
CNCc1ccc2c(c1)N(C(=O)OCc1c(F)c(F)c(F)c(F)c1F)[C@H](CNC(=N)N)[C@H]2NC(=O)C(=O)Nc1ccc(Cl)c(F)c1 | Human immunodeficiency virus 1 | viral infection, Env pseudovirus | TZM-bl, C2101.c01 CRF01_AE | – | – | IC80 | 52.6 µM
COC(=O)c1cnc(-c2cnccn2)cc1C(=O)OC.COC(=O)c1cnc(-c2cnccn2)cc1C(=O)OC.F[P-](F)(F)(F)(F)F.[Ag+] | Candida albicans | biofilm formation, crystal violet staining | ATCC 10231 | 0.87 µg/mL | – | inhibition | 36 ± 3%
Cc1cccc2c1N(C(=O)n1ccnn1)CC2 | Arabidopsis thaliana | – | wild type, seeds | 30 µM, high ambient temperature | – | germination rate | 82.4% and 17.4% and 72.4% and 73.2% and 82.8% and 59.4%
COC(=O)[C@H](C)NC(=O)c1ccccc1NC(=O)[C@H](Cc1ccc(OC(C)(C)C)cc1)N(C)C(=O)[C@@H](NC(=O)OCc1ccccc1)C(C)C | Candida albicans | potentiator, broth microdilution | ATCC 90029 | 2.0 µg/mL, together with: amphotericin B | baseline: amphotericin B alone | fold potentiation | 32
C[N+](C)(C)CCO.O=C([O-])C(Cl)Cl | Xanthium sibiricum | – | – | 15 mg/mL, 21 days, post-emergence, greenhouse | – | herbicidal inhibition | 0%

For quick reference, copied from above:
Compound | organism | assay | test system | conditions | how to read | measurement | result
Cc1cccc2c1N(C(=O)n1ccnn1)CC2 | Arabidopsis thaliana | – | wild type, seeds | 30 µM, high ambient temperature | – | germination rate | 82.4% and 17.4% and 72.4% and 73.2% and 82.8% and 59.4%
